Assay results of several laboratories.
Several values in a cell are separate wells, animals, samples, runs or records. ± gives the spread as reported.

SMILES | cell line | test | setting | endpoint | result
Cc1cc(C(C)(C)c2ccc(O)c(C)c2)ccc1O | HepG2 spheroids | annexin V-FITC/PI flow cytometry | 10 µM, 24 h | necrotic cells | 8.02 ± 3.22%
O=C(Nc1ccccc1F)c1cc2c(=O)n3ccccc3nc2n1Cc1ccccc1 | Vero | MTT | 1.6 µM, 24 (unit not given) | viability | 70.2%
CC[C@H](C)[C@H](NC(=O)[C@H](CCCCN)NC(=O)[C@H](CC(N)=O)NC(=O)[C@H](CCCNC(=N)N)NC(=O)[C@H](C)NC(=O)[C@H](CC(C)C)NC(=O)[C@H](CC(C)C)NC(=O)[C@H](CCSC)NC(=O)[C@H](Cc1c[nH]cn1)NC(=O)[C@H](CC(C)C)NC(=O)[C@@H](N)CC(C)C)C(=O)N[C@@H](CCCNC(=N)N)C(=O)N[C@H](C(=O)N[C@@H](CC(C)C)C(=O)N[C@@H](CCCCN)C(=O)N[C@@H](CC(N)=O)C(=O)N[C@@H](CC(N)=O)C(=O)N[C@@H](CCSC)C(=O)N[C@@H](Cc1ccccc1)C(=O)N[C@@H](CO)C(=O)N[C@@H](CCCCN)C(=O)N[C@@H](Cc1ccccc1)C(=O)N[C@@H](CCCCN)C(=O)N[C@@H](CCCCN)C(=O)N[C@@H](CC(C)C)C(=O)N[C@@H](CCCCN)C(=O)N[C@@H](CO)C(=O)N[C@@H](CC(C)C)C(=O)O)[C@@H](C)O | PMA-differentiated THP-1 | cell viability, MTT | 24 h | CC50 | 25.1 µM
Cc1cccn2c(=O)c3cc(C(=O)Nc4ccc(N(C)C)cc4)n(C)c3nc12 | Vero | MTT | 0.4 µM, 24 (unit not given) | viability | 97.5%
C=C1CC[C@@H]2[C@](C)(CO)[C@H](O)CC[C@@]2(C)[C@@H]1C/C=C1/C(=O)OC[C@H]1O | AREc32 | cell confluency, imaging | 24 h | IC10 | 95 µM
CC(C)C[C@H](NC(=O)[C@H](C)NC(=O)[C@@H](NC(=O)[C@H](CCCNC(=N)N)NC(=O)[C@H](CC(C)C)NC(=O)[C@H](Cc1c[nH]c2ccccc12)NC(=O)[C@@H]1CCCN1C(=O)[C@@H](N)CCCCN)C(C)C)C(=O)N[C@@H](CS)C(=O)N1CCC[C@H]1C(=O)NCC(=O)O | Vero | WST-1 | 32 µM, 24 h | viability | 98.1% and 99.8% and 100%
O=S(=O)(c1ccc(O)cc1)c1ccc(O)cc1 | HepG2 spheroids, dissociated | annexin V-FITC/PI flow cytometry | 10 µM, 24 h | early apoptotic cells | 16.8 ± 1.48%
N=C(N)NCCC[C@H](NC(=O)CN)C(=O)N[C@@H](Cc1c[nH]c2ccccc12)C(=O)N[C@@H](CCCNC(=N)N)C(=O)N[C@@H](Cc1c[nH]c2ccccc12)C(=O)N[C@@H](Cc1c[nH]c2ccccc12)C(=O)N[C@@H](Cc1c[nH]c2ccccc12)C(=O)N[C@@H](CCCNC(=N)N)C(=O)N[C@@H](Cc1c[nH]c2ccccc12)C(=O)N[C@@H](CCCNC(=N)N)C(=O)N[C@@H](Cc1c[nH]c2ccccc12)C(N)=O | PK-15 |  |  | LC50 | 102 µM
Nc1ncnc2c1ncn2C[C@H](O)CO | HeLa | cell morphology alteration |  | minimum cytotoxic concentration | > 250 µM
N=C(N)NCCC[C@H](NC(=O)[C@H](Cc1c[nH]c2ccccc12)NC(=O)[C@H](CCCNC(=N)N)NC(=O)[C@H](Cc1c[nH]c2ccccc12)NC(=O)[C@H](Cc1c[nH]c2ccccc12)NC(=O)[C@H](Cc1c[nH]c2ccccc12)NC(=O)[C@H](CCCNC(=N)N)NC(=O)[C@H](Cc1c[nH]c2ccccc12)NC(=O)[C@H](CCCNC(=N)N)NC(=O)CN)C(N)=O | PK-15 |  |  | LC50 | > 512 µM
Oc1ccc(C(c2ccc(O)cc2)(C(F)(F)F)C(F)(F)F)cc1 | HepG2 spheroids, dissociated | annexin V-FITC/PI flow cytometry | 1 µM, 24 h | late apoptotic cells | 13.1 ± 2.59%
O=c1ccc2ccccc2o1 | NHEK | ER stress, measured: BiP | concentration not given, 24 h | chance response | 0%

A few entries again:
SMILES | cell line | test | setting | endpoint | result
CC(C)C[C@H](NC(=O)[C@H](C)NC(=O)[C@@H](NC(=O)[C@H](CCCNC(=N)N)NC(=O)[C@H](CC(C)C)NC(=O)[C@H](Cc1c[nH]c2ccccc12)NC(=O)[C@@H]1CCCN1C(=O)[C@@H](N)CCCCN)C(C)C)C(=O)N[C@@H](CS)C(=O)N1CCC[C@H]1C(=O)NCC(=O)O | Vero | WST-1 | 32 µM, 24 h | viability | 98.1% and 99.8% and 100%
